Published values gathered from unrelated publications.
Protocols differ between the studies behind these lines. Values joined by “and” are separate records of one study, mostly repeats; a detail may differ. ± gives the spread as reported.
Nuclear receptor subfamily 2 group C member 2 ligand-binding domain: Nuclear receptor subfamily 2 group C member 2, ligand-binding domain (Homo sapiens, UniProt P49116)
UniProt P49116, sequence (whole entry, looked up): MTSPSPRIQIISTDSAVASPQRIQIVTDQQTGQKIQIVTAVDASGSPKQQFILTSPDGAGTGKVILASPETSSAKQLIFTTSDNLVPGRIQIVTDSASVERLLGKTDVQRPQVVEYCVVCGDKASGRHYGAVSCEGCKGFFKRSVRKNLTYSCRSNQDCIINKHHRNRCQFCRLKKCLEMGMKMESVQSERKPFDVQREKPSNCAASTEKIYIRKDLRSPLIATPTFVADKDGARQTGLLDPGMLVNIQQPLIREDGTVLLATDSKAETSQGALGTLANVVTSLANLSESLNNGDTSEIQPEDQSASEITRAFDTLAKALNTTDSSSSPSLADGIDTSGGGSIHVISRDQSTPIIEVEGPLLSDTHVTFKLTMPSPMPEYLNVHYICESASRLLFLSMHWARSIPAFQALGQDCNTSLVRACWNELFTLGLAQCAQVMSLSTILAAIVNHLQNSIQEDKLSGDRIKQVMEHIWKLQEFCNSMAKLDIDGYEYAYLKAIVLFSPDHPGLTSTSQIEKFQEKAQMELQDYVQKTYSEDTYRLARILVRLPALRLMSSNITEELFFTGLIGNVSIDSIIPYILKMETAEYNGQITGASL

COc1cnc2cccc(N3CCc4c(cc(Cn5ccnc5C)cc4-c4cn(C)nc4C(F)(F)F)C3=O)c2c1 — EC50 (RERF-LC-Ad2; cell growth, inhibitor; 120 h): 763 nM
C#Cc1cccc(Nc2ncnc3cc(OC)c(OCCCCCCC(=O)NO)cc23)c1 — viability (OCI-Ly1; 0.5 µM, 120 h): 9.09%
FC(F)(F)Oc1ccc(CNc2ccc3nc(S)[nH]c3c2)cc1 — viability (sample A patient iPSC-derived NPCs; MTS; 10 µM, 24 h; relative to: vehicle): 95.98 ± 0.95%
[Cl-].[Cl-].[Ru+2].c1cnc2c(c1)ccc1cccnc12.c1cnc2c(c1)ccc1cccnc12.c1csc(-c2ccc(-c3ccc(-c4nc5c6cccnc6c6ncccc6c5[nH]4)s3)s2)c1 — phototherapeutic index (SK-MEL-28; normoxia, added: red light 633 nm, 100 J/cm2): 5
C=C1C(=O)OC2CC1C(OC(C)=O)C/C(C)=C/CC/C(C)=C\CCC2(C)O (stereo not shown) — EC50 (iPSC-derived cardiomyocytes; concentration-response curve, refers to: MyBP-C protein level): > 50000 nM
CCn1cc(-c2cc(Cn3ccoc3=N)cc3c2CCN([C@@H](C)c2cc(OC)ccn2)C3=O)c(C(F)(F)F)n1 — EC50 (JHH7; cell growth, inhibitor; 120 h): 854 nM
C=Cc1c2[n-]c(c1C)/C=c1\[n-]/c(c(C)c1C=C)=C\c1[n-]c(c(CCC(=O)O)c1C)/C=c1\[n-]c(c(C)c1CCC(=O)O)=C2.[Sn+4] — fold change (SH-SY5Y; RNA-seq, refers to: LIF mRNA; 5 µM, 5 h; relative to: untreated cells): 6.91
CC[C@@H]1C(=O)OC[C@@H]1Cc1cncn1C — Kd (Nuclear receptor subfamily 2 group C member 2 ligand-binding domain; SPR imaging): 0.801 nM
COC(=O)c1ccc(N2CCN(C)CC2)c(NC(=O)c2cccc(OC)c2)c1 — viability (OCI-Ly1; 0.1 µM, 120 h): 190%
COc1cc(/C=C/C(=O)N2CCC=CC2=O)cc(OC)c1OC — mRNA level (MDA-MB-468; quantitative RT-PCR, refers to: PRDX6; 30 µM, 8 h; relative to: untreated cells): 93.7 ± 6%
CN(C)c1ccc(C(=C2C=CC(=[N+](C)C)C=C2)c2ccc(N(C)C)cc2)cc1 — fitted bottom MyBP-C level (iPSC-derived cardiomyocytes; concentration-response fit; concentration not given; relative to: vehicle): 0%
O=C(NO)c1cccc(C(=O)NCCc2ccccc2)c1 — viability (OCI-Ly1; 0.1 µM, 120 h): 200%
COc1cc2ncnc(Nc3ccc(Oc4ccccc4)c(C)c3C)c2cc1OC.Cl — fractional effect (LoVo (KRAS G13D); cell viability, resazurin; 1 µM, 72 h, added: trametinib 0 nM; relative to: DMSO): 0.263 and 0.267
CCOC(=O)CSc1nc(-c2ccc(Cl)cc2)c2c(NC(=O)c3ccccc3)nnc-2[nH]1 — growth percent (786-0; NCI60 SRB; 10 µM): 101%
CC(=O)Nc1ccc(NC(=S)NC(=O)c2ccc(C(C)(C)C)cc2)cc1 — viability (OCI-Ly1; 0.5 µM, 120 h): 54.4%
CC1(C)CCC(CN2CCN(c3ccc(C(=O)NS(=O)(=O)c4ccc(NCC5CCOCC5)c([N+](=O)[O-])c4)c(Oc4cnc5[nH]ccc5c4)c3)CC2)=C(c2ccc(Cl)cc2)C1 — early apoptotic cells (THP-1; annexin V/PI flow cytometry, refers to: annexin V+/PI-; 0.4 µM, 24 h): 3.6%
CN(C)CCC=C1c2ccccc2CCc2ccccc21 — Kd (Nuclear receptor subfamily 2 group C member 2 ligand-binding domain; SPR imaging): 0.024 nM
Cc1cc(Nc2ncc(Cl)c(Nc3ccccc3S(=O)(=O)C(C)C)n2)c(OC(C)C)cc1C1CCNCC1 — log2 fold change (CLB-BAR; phosphoproteomics LC-MS/MS, refers to: CCT2 phosphorylation; 200 nM, 60 min; relative to: untreated): -3.12
COc1ccc(Cn2ccc3ccc(C(=O)NO)cc32)cc1 — viability (OCI-Ly1; 0.1 µM, 120 h): 118%
Cn1cc(-c2ccc(-c3cncc(Cl)c3N3CCC4(CCNC4=O)CC3)cc2)cn1 — log2 fold change (COLO 205; gene expression, microarray, refers to: ASS1 mRNA; concentration not given, 6 h; relative to: untreated cells): 3.22
O=C(C[C@@H](C(F)F)n1ccc(F)n1)N1CCC(O)(Cn2cnc3c(cnn3-c3ccc(F)cc3)c2=O)CC1 — cells in S phase (CHP-212 resistant; PI staining flow cytometry; 1 µM, 24 h): 12.4% and 10.8% and 13.4%
O=C(CCCN1C(=O)c2cccc3cccc(c23)C1=O)NO — viability (OCI-Ly1; 0.1 µM, 120 h): 130%
Cc1cccc(-c2[nH]c(CNc3ccccc3F)nc2-c2ccc3ncnn3c2)n1 — viability (MM1.S; XTT; 3 µM): 13% and 17% and 12%
Nc1ccccc1NC(=O)CCCCCCC(=O)Nc1ccccc1 — viability (OCI-Ly1; 0.5 µM, 120 h): 90.7%
O=c1[nH]nc(OCCCc2ccc(Cl)cc2)c(NCc2cccnc2)c1Br — normalized enrichment score (HEK-293T; RNA-seq GSEA, refers to: HALLMARK_MTORC1_SIGNALING; concentration not given; direction not given): 1.99

Some of these lines once more:
O=C(C[C@@H](C(F)F)n1ccc(F)n1)N1CCC(O)(Cn2cnc3c(cnn3-c3ccc(F)cc3)c2=O)CC1 — cells in S phase (CHP-212 resistant; PI staining flow cytometry; 1 µM, 24 h): 12.4% and 10.8% and 13.4%
COc1cc2ncnc(Nc3ccc(Oc4ccccc4)c(C)c3C)c2cc1OC.Cl — fractional effect (LoVo (KRAS G13D); cell viability, resazurin; 1 µM, 72 h, added: trametinib 0 nM; relative to: DMSO): 0.263 and 0.267
